# Published values gathered from unrelated publications.
# Compare with care: the assays were run in different laboratories. ± gives the spread as reported.
Compound,cell line,test,system,conditions,how to read,measurement,value
CC(=O)c1cc(-c2ccoc2)ccc1OCCc1cccc(F)c1,HepG2,,,3 (unit not given),reference: CC50 glucose over CC50 galactose,selectivity ratio,2
O=C(O)c1ccc(C(=O)O)cc1,MDA-kb2,cytotoxicity,,,,AC50,1000 mM
CCOP(=S)(OCC)Oc1cc(C)nc(C(C)C)n1,rat hepatoma cells,"cell confluency, IncuCyte imaging",,"24 h, nominal concentration",,IC10,0.0256 mM
CCCCCCCCCCCC(=O)N[C@H](CCC(=O)NC(CCCC(N)C(=O)O)C(=O)O)C(=O)O (some centres unmarked),HFF-1,,,100 µg/mL,,viability,85%
CC(=O)N[C@@H](CCCCN)C(=O)N[C@@H](CC(C)C)C(=O)N[C@@H](CC(C)C)C(=O)N[C@@H](CCCCN)C(=O)N[C@@H](CC(C)C)C(=O)N[C@@H](CC(C)C)C(=O)N[C@@H](CCCCN)C(=O)N[C@@H](CCCCN)C(=O)N1CCC[C@H]1C(=O)N[C@@H](CC(C)C)C(=O)N[C@@H](CCCCN)C(=O)N[C@@H](CC(C)C)C(=O)N[C@@H](CC(C)C)C(=O)N[C@@H](CCCCN)C(=O)N[C@@H](CCCCN)C(=O)N[C@@H](CC(C)C)C(N)=O,human red blood cells,haemolysis,,"6 h, 37 °C, 5% haematocrit in PBS",,MHC10,> 160 µM
O=S(=O)(c1ccc(O)cc1)c1ccc(O)cc1,"HepG2 spheroids, dissociated",annexin V-FITC/PI flow cytometry,,"0.1 µM, 24 h",,late apoptotic cells,8.04 ± 3.02%
CC(=O)c1ccc2c(c1)N(CCCN(C)C)c1ccccc1S2,African green monkey cells,,,5 days,,CC50,0.0224 mM
N#C[C@@]1(n2ccc(N)nc2=O)O[C@H](CO)[C@@H](O)[C@H]1O,CHO,,,"16 µM, without S9",,micronucleated cells,0.19%
CC(C)(c1ccc(O)cc1)c1ccc(O)cc1,HepG2 spheroids,annexin V-FITC/PI flow cytometry,,"0.10 µM, 96 h",,necrotic cells,37.9 ± 11%
CC(C)C[C@H](NC(=O)[C@H](CCCCN)NC(=O)[C@H](CC(C)C)NC(=O)[C@H](CC(C)C)NC(=O)CNC(=O)[C@H](CCCCN)NC(=O)[C@H](CC(C)C)NC(=O)[C@H](CCCCN)NC(=O)CNC(=O)[C@H](CC(C)C)NC(=O)[C@H](CC(C)C)NC(=O)[C@H](CCCCN)NC(=O)[C@@H](N)CC(C)C)C(=O)O,HEK-293T cells,CCK-8,,"4 h, 37 °C, 10% cell death",,lowest cytotoxic concentration,> 256 µg/mL
CN(CCC=C1c2ccccc2CCc2ccccc21)N=O,TK6 expressing CYP2C19,,,"0.25 µM, 4 h, without S9",reference: vehicle,relative survival,21.8%
N#Cc1cc(NCc2cccc(CN3C[C@H](O)[C@@H](O)[C@H](O)[C@H]3CO)c2)cc(C2=COCCO2)c1,A549 expressing ACE2,WST-1,,"25 µM, 3 days",,viability,100%
Nc1nc2nn[nH]c2c(=O)[nH]1,African green monkey cells,,,5 days,,CC50,0.0237 mM
Nc1nc2c(ncn2[C@@H]2O[C@@H]3COP(=O)(O)O[C@H]4[C@@H](O)[C@H](n5cnc6c(N)ncnc65)O[C@@H]4COP(=O)(O)O[C@H]3[C@H]2O)c(=O)[nH]1,HFF-1,,,0.1 µg/mL,,viability,96.4%
CN(C(=O)n1cnc(-c2ccc[n+]([O-])c2)c1)C1CCCCC1,COS-7 expressing human FAAH,,culture supernatant,"100 nM, 24 h",,concentration,101 ± 1.1 nM
CC(C)C[C@H](NC(=O)CNC(=O)CNC(=O)CNC(=O)[C@H](CC(N)=O)NC(=O)[C@@H](NC(=O)[C@@H]1CCCN1C(=O)[C@H](C)NC(=O)[C@@H]1CCCN1C(=O)[C@H](C)NC(=O)[C@H](Cc1ccc(O)cc1)NC(=O)[C@@H]1CCCN1C(=O)[C@H](C)NC(=O)[C@H](CC(C)C)NC(=O)[C@H](CO)NC(=O)[C@@H](N)Cc1ccccc1)C(C)C)C(=O)N[C@@H](CCCCN)C(=O)N[C@@H](CCCCN)C(=O)N[C@@H](CC(C)C)C(=O)N[C@@H](CC(C)C)C(=O)N[C@@H](CC(C)C)C(=O)N[C@@H](CC(C)C)C(=O)N[C@@H](CC(C)C)C(=O)N[C@@H](CCCCN)C(=O)N[C@@H](CCCCN)C(=O)N[C@@H](CC(C)C)C(=O)NCC(=O)O,human red blood cells,,,"1 h, 37 °C, 10% hemolysis",,lowest hemolytic concentration,> 256 µg/mL
CC(=O)N[C@@H](CCCCN)C(=O)N[C@@H](CCCCN)C(=O)N[C@@H](CC(C)C)C(=O)N[C@@H](CC(C)C)C(=O)N[C@@H](CCCCN)C(=O)N[C@@H](CC(C)C)C(=O)N[C@@H](CC(C)C)C(=O)N[C@@H](CCCCN)C(=O)N[C@@H](CCCCN)C(=O)N1CCC[C@H]1C(=O)N[C@@H](CC(C)C)C(=O)N[C@@H](CCCCN)C(=O)N[C@@H](C)C(=O)N[C@@H](CC(C)C)C(=O)N[C@@H](CCCCN)C(N)=O,human red blood cells,haemolysis,,"6 h, 37 °C, 5% haematocrit in PBS",,MHC10,> 160 µM
COc1cc2c(c(OC)c1OC)-c1ccc(OC)c(=O)cc1[C@@H](NC(C)=O)CC2,human peripheral blood lymphocytes,,,"0.01 µg/mL, 24 h, without S9",,cytostasis,7%
Cc1cc(C(C)(C)c2ccc(O)c(C)c2)ccc1O,"HepG2 spheroids, dissociated",annexin V-FITC/PI flow cytometry,,"0.10 µM, 96 h",,early apoptotic cells,5.04 ± 3.87%
Cn1c(N)nc2c3cccnc3ccc21,rat hepatoma cells,"cell confluency, IncuCyte imaging",,"24 h, nominal concentration",,IC10,> 0.217 mM
Nc1ncnc2c1ncn2[C@@H]1O[C@@H]2COP(=O)(O)O[C@H]3[C@@H](O)[C@H](n4cnc5c(N)ncnc54)O[C@@H]3COP(=O)(O)O[C@H]2[C@H]1O,HFF-1,,,1 µg/mL,,viability,89.7%
Cc1cc2nc3c(=O)[nH]c(=O)nc-3n(C[C@H](O)[C@H](O)[C@H](O)CO)c2cc1C,African green monkey cells,,,5 days,,CC50,> 0.0501 mM
O=c1ccc2ccccc2o1,NHEK,cell count,,"concentration not given, 6 h, AhR translocation panel",,chance response,0.03%
CC(C)C[C@H](NC(=O)[C@H](CCCNC(=N)N)NC(=O)[C@H](CCCNC(=N)N)NC(=O)[C@H](CCCNC(=N)N)NC(=O)[C@@H]1CCCN1C(=O)[C@H](Cc1ccccc1)NC(=O)[C@H](Cc1ccc(O)cc1)NC(=O)[C@H](CCCNC(=N)N)NC(=O)[C@H](Cc1ccc(O)cc1)NC(=O)[C@@H](NC(=O)[C@H](CC(C)C)NC(=O)[C@H](Cc1ccc(O)cc1)NC(=O)[C@H](CCCNC(=N)N)NC(=O)[C@H](Cc1c[nH]cn1)NC(=O)[C@@H]1CCCN1C(=O)[C@H](Cc1c[nH]c2ccccc12)NC(=O)[C@H](Cc1ccc(O)cc1)NC(=O)[C@H](Cc1ccccc1)NC(=O)[C@@H]1CCCN1C(=O)[C@H](CCC(N)=O)NC(=O)[C@H](Cc1ccccc1)NC(=O)[C@@H]1CCCN1C(=O)[C@H](Cc1ccccc1)NC(=O)[C@H](CCCNC(=N)N)NC(=O)[C@H](Cc1c[nH]cn1)NC(=O)[C@H](CC(N)=O)NC(=O)[C@H](CS)NC(=O)[C@H](CCCNC(=N)N)NC(=O)[C@H](CO)NC(=O)[C@@H]1CCCN1C(=O)[C@@H](NC(=O)[C@H](Cc1ccccc1)NC(=O)[C@@H]1CCCN1C(=O)[C@H](CCCNC(=N)N)NC(=O)[C@H](CC(N)=O)NC(=O)[C@@H]1CCCN1C(=O)[C@H](Cc1ccccc1)NC(=O)[C@H](CCCNC(=N)N)NC(=O)[C@@H](N)Cc1ccccc1)C(C)C)[C@@H](C)O)C(=O)N[C@@H](CCC(N)=O)C(=O)N[C@@H](CCCNC(=N)N)C(=O)O,human red blood cells,hemolysis,,,,HC50,2.9 µmol/L
CC(C)Cn1cnc2c(N)nc3ccccc3c21,HFF-1,,,"10 µg/mL, 48 h",,viability,78.3%
CN1CCN(CCCN2c3ccccc3Sc3ccc(S(=O)(=O)N(C)C)cc32)CC1,African green monkey cells,,,5 days,,CC50,0.00631 mM
CCc1cccc(C)c1N(C(=O)CCl)C(C)COC (centres unmarked),MCF7 AREc32,,,"24 h, nominal concentration",reference: baseline IC10 over IC10,toxic ratio,0.78
Cc1cscc1-c1ccc(OCCc2cccc(F)c2)c(C(N)=O)c1,HepG2,,,3 (unit not given),reference: CC50 glucose over CC50 galactose,selectivity ratio,1
CN(C)CC/C=C1\c2ccccc2CSc2ccccc21,African green monkey cells,,,5 days,,CC50,0.02 mM
CC(C)C[C@H](NC(=O)[C@H](CCCCN)NC(=O)[C@H](CCCCN)NC(=O)[C@H](CC(C)C)NC(=O)[C@H](CC(C)C)NC(=O)[C@H](CC(C)C)NC(=O)[C@H](CC(C)C)NC(=O)[C@H](CC(C)C)NC(=O)[C@H](CCCCN)NC(=O)[C@H](CCCCN)NC(=O)[C@@H](N)CC(C)C)C(=O)NCC(=O)NCC(=O)NCC(=O)N[C@@H](Cc1c[nH]c2ccccc12)C(=O)N[C@@H](CCCCN)C(=O)N[C@H](C(=O)N[C@@H](CC(N)=O)C(=O)N[C@@H](CCCCN)C(=O)N[C@@H](Cc1ccc(O)cc1)C(=O)NCC(=O)N[C@H](C(=O)N[C@@H](CC(C)C)C(=O)N[C@@H](Cc1ccc(O)cc1)C(=O)O)[C@@H](C)O)[C@@H](C)O,HEK-293T cells,CCK-8,,"4 h, 37 °C, 10% cell death",,lowest cytotoxic concentration,64 µg/mL
CC(c1ccccc1)(c1ccc(O)cc1)c1ccc(O)cc1,"HepG2 spheroids, dissociated",annexin V-FITC/PI flow cytometry,,"10 µM, 24 h",,viable cells,74.5 ± 13.5%
OC(CNCC(O)C1CCc2cc(F)ccc2O1)C1CCc2cc(F)ccc2O1 (centres unmarked),African green monkey cells,,,5 days,,CC50,0.00871 mM
CC(=O)N[C@@H](CCCCN)C(=O)N[C@@H](CCCCN)C(=O)N[C@@H](CC(C)C)C(=O)N[C@@H](CC(C)C)C(=O)N[C@@H](CCCCN)C(=O)N[C@@H](CC(C)C)C(=O)N[C@@H](CC(C)C)C(=O)N[C@@H](CCCCN)C(=O)N[C@@H](CCCCN)C(=O)N1CCC[C@H]1C(=O)N[C@@H](CC(C)C)C(=O)N[C@@H](C)C(=O)N[C@@H](CC(C)C)C(=O)N[C@@H](CC(C)C)C(=O)N[C@@H](CCCCN)C(N)=O,human red blood cells,haemolysis,,"6 h, 37 °C, 5% haematocrit in PBS",,MHC10,> 160 µM
C=CCn1c(=O)n([C@@H]2O[C@H](CO)[C@@H](O)[C@H]2O)c2nc(N)[nH]c(=O)c21,HFF-1,,,"10 µM, 48 h",,viability,88.4%
CC[C@@H]1C(=O)N(C)c2cnc(Nc3ccc(C(=O)NC4CCN(C)CC4)cc3OC)nc2N1C1CCCC1,African green monkey cells,,,5 days,,CC50,0.000603 mM
Oc1ccc(C(c2ccc(O)cc2)(C(F)(F)F)C(F)(F)F)cc1,"HepG2 spheroids, dissociated",annexin V-FITC/PI flow cytometry,,"10 µM, 96 h",,early apoptotic cells,5.45 ± 2.29%
O=C(Nc1ccccc1)OCC(CN1CCCCC1)OC(=O)Nc1ccccc1 (centres unmarked),African green monkey cells,,,5 days,,CC50,> 0.0251 mM
N[C@H](CCC(=O)N[C@H](CCC[C@H](N)C(=O)O)C(=O)O)C(=O)O,HFF-1,,,0.1 µg/mL,,viability,87.1%

# For quick reference, copied from above:
Compound,cell line,test,system,conditions,how to read,measurement,value
Cc1cc2nc3c(=O)[nH]c(=O)nc-3n(C[C@H](O)[C@H](O)[C@H](O)CO)c2cc1C,African green monkey cells,,,5 days,,CC50,> 0.0501 mM
CC(C)C[C@H](NC(=O)[C@H](CCCNC(=N)N)NC(=O)[C@H](CCCNC(=N)N)NC(=O)[C@H](CCCNC(=N)N)NC(=O)[C@@H]1CCCN1C(=O)[C@H](Cc1ccccc1)NC(=O)[C@H](Cc1ccc(O)cc1)NC(=O)[C@H](CCCNC(=N)N)NC(=O)[C@H](Cc1ccc(O)cc1)NC(=O)[C@@H](NC(=O)[C@H](CC(C)C)NC(=O)[C@H](Cc1ccc(O)cc1)NC(=O)[C@H](CCCNC(=N)N)NC(=O)[C@H](Cc1c[nH]cn1)NC(=O)[C@@H]1CCCN1C(=O)[C@H](Cc1c[nH]c2ccccc12)NC(=O)[C@H](Cc1ccc(O)cc1)NC(=O)[C@H](Cc1ccccc1)NC(=O)[C@@H]1CCCN1C(=O)[C@H](CCC(N)=O)NC(=O)[C@H](Cc1ccccc1)NC(=O)[C@@H]1CCCN1C(=O)[C@H](Cc1ccccc1)NC(=O)[C@H](CCCNC(=N)N)NC(=O)[C@H](Cc1c[nH]cn1)NC(=O)[C@H](CC(N)=O)NC(=O)[C@H](CS)NC(=O)[C@H](CCCNC(=N)N)NC(=O)[C@H](CO)NC(=O)[C@@H]1CCCN1C(=O)[C@@H](NC(=O)[C@H](Cc1ccccc1)NC(=O)[C@@H]1CCCN1C(=O)[C@H](CCCNC(=N)N)NC(=O)[C@H](CC(N)=O)NC(=O)[C@@H]1CCCN1C(=O)[C@H](Cc1ccccc1)NC(=O)[C@H](CCCNC(=N)N)NC(=O)[C@@H](N)Cc1ccccc1)C(C)C)[C@@H](C)O)C(=O)N[C@@H](CCC(N)=O)C(=O)N[C@@H](CCCNC(=N)N)C(=O)O,human red blood cells,hemolysis,,,,HC50,2.9 µmol/L
CC(C)C[C@H](NC(=O)[C@H](CCCCN)NC(=O)[C@H](CCCCN)NC(=O)[C@H](CC(C)C)NC(=O)[C@H](CC(C)C)NC(=O)[C@H](CC(C)C)NC(=O)[C@H](CC(C)C)NC(=O)[C@H](CC(C)C)NC(=O)[C@H](CCCCN)NC(=O)[C@H](CCCCN)NC(=O)[C@@H](N)CC(C)C)C(=O)NCC(=O)NCC(=O)NCC(=O)N[C@@H](Cc1c[nH]c2ccccc12)C(=O)N[C@@H](CCCCN)C(=O)N[C@H](C(=O)N[C@@H](CC(N)=O)C(=O)N[C@@H](CCCCN)C(=O)N[C@@H](Cc1ccc(O)cc1)C(=O)NCC(=O)N[C@H](C(=O)N[C@@H](CC(C)C)C(=O)N[C@@H](Cc1ccc(O)cc1)C(=O)O)[C@@H](C)O)[C@@H](C)O,HEK-293T cells,CCK-8,,"4 h, 37 °C, 10% cell death",,lowest cytotoxic concentration,64 µg/mL
